Assay results gathered from unrelated publications.
Compare with care: the assays were run in different laboratories.
PLK1: Serine/threonine-protein kinase PLK1 (PLK1, Homo sapiens, UniProt P53350)
UniProt P53350, sequence (whole entry, looked up): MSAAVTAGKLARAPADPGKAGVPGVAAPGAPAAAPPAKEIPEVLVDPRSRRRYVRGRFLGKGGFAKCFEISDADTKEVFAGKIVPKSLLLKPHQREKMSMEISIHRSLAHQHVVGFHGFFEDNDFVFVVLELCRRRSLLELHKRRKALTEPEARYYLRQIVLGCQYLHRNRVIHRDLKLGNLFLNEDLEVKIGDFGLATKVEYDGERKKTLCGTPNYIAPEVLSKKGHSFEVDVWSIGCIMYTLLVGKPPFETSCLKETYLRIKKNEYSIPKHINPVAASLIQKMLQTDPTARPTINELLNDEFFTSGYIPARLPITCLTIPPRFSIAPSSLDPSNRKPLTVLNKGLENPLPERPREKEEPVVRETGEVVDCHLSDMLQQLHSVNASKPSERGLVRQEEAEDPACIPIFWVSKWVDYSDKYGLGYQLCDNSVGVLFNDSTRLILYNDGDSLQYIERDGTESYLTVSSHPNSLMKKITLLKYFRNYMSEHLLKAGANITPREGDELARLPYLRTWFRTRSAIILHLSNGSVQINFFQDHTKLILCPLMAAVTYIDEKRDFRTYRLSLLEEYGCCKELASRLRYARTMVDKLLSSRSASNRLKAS
PLK1 polo-box: Serine/threonine-protein kinase PLK1, polo-box (PLK1, Homo sapiens, UniProt P53350)

`CC[C@@H]1C(=O)N(C)c2cnc(Oc3ccc(C(=O)NCCCC[C@H](NC(C)=O)C(N)=O)cc3OC)nc2N1CC(C)C`: IC50 “no inhibition” (PLK1; enzyme activity, inhibitor).
With `COc1cc(C(=O)NC2CCC(N3CCN(CC4CCC5(CCCC5)C4)CC3)CC2)c(F)cc1Nc1ncc2c(n1)N(C1CCCC1(F)F)CC(F)(F)C(=O)N2C` (centres unmarked) the IC50 was 0.0226 nM (PLK1; enzyme activity, inhibitor, ADP detection).
With `CSCC[C@H](NC(=O)[C@@H]1CCCN1C(=O)CN)C(=O)N[C@@H](CCC(N)=O)C(=O)N[C@@H](CO)C(=O)N[C@H](C(=O)N1CCC[C@H]1C(=O)N[C@@H](CC(C)C)C(=O)N[C@@H](CC(N)=O)C(=O)NCC(=O)O)[C@@H](C)OP(=O)(O)O` the IC50 was 1120 nM (PLK1 polo-box; ligand displacement, FP).
For `CC[C@@H]1C(=O)N(C)c2cnc(Oc3ccc(C(=O)NCCCC[C@H](NC(C)=O)C(N)=O)cc3OC)nc2N1C1CCCC1`, the IC50 was 960 nM (PLK1; enzyme activity, inhibitor, FRET).
With `C=CC(=O)N1CCc2ccc(-n3c(=O)ccc4cnc5ccc(-c6cnn(C)c6)cc5c43)cc21` the IC50 was greater than 10000 nM (PLK1; enzyme activity, inhibitor).
For `N#Cc1cccc(CN2C[C@@H]3C[C@H](C2)c2c(-c4ccc5ccccc5c4)ccc(=O)n2C3)c1`, the Kd was 283 nM (PLK1; binding).
`COc1cc(C(=O)NC2CCC(N3CCN(C[C@H]4CC4(F)F)CC3)CC2)c(F)cc1Nc1ncc2c(n1)N([C@H]1CCCC1(F)F)CC(F)(F)C(=O)N2C` (some centres unmarked) gave an IC50 of 0.0568 nM (PLK1; enzyme activity, inhibitor, ADP detection).
`CC(C)C[C@H](NC(=O)[C@@H]1CCCN1C(=O)[C@@H]1CCCN1C(=O)[C@H](CC(N)=O)NC(=O)[C@@H](N)Cc1ccc(Cl)c(Cl)c1)C(=O)N[C@@H](Cc1c[nH]cn1)C(=O)N[C@@H](CO)C(=O)N[C@H](C(=O)N[C@@H](C)C(=O)O)[C@@H](C)OP(=O)(O)O` has a Kd of 67 nM (PLK1 polo-box; binding, MST).

A few entries again:
With `CSCC[C@H](NC(=O)[C@@H]1CCCN1C(=O)CN)C(=O)N[C@@H](CCC(N)=O)C(=O)N[C@@H](CO)C(=O)N[C@H](C(=O)N1CCC[C@H]1C(=O)N[C@@H](CC(C)C)C(=O)N[C@@H](CC(N)=O)C(=O)NCC(=O)O)[C@@H](C)OP(=O)(O)O` the IC50 was 1120 nM (PLK1 polo-box; ligand displacement, FP).
